Measured values from different studies.
Parts stem from different laboratories: compare values within a part only. Positions count from the first letter of the parent shown.

Set 1
Target: RNA binding protein fox-1 homolog 2, RRM domain, GST-SBP tag (RBFOX2, Homo sapiens, UniProt O43251-10, residues 100-194)
Method: RNA Bind-n-Seq
Molecule type: RNA
Sample: in vitro
Tested at: 365 nM
Setting: natural RNA segment, single round, ends assumed
Baseline: no-protein control
Direction: higher = stronger binding
Residues (chain): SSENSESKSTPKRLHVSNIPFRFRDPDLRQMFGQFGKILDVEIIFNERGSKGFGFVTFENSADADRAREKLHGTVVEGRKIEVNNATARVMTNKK
Under “RBNS enrichment (R)”, `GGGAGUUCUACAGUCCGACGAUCAUCUGGAUUUACUUGGUUUGCCGUUUUAAUUCCAGCCGGAUUGGUGUUCUUUAAACAAAAAGUAGGCAGGGAGCACUUCCAGGGCUUUGCAGGCUGUUUUUGUUUUUUUUUGGAAUUCUCGGGUGCCAA` is recorded as 0.365.
`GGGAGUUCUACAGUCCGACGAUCGGUGACCCAUUUCCCCAGCCGUGUCGUCUCCAGGACCACCCGAUGGAAAUAACAGGCGGGCUUCACGGUGCGGCUCUGUCCGCCCAUGCCCCGCUGGGUCUGCAGGGAACUGGAAUUCUCGGGUGCCAA` — result for “RBNS enrichment (R)”: 0.17.
For `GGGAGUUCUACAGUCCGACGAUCGUGGUUACUUGAUUUUGAGGAAGAAAAUAUUCAGCUUUGUAUAAAGACUAGGUAUCAGAUUCCUUUUGCAGUGGGAGGUGUAUAUAUCGUAUUUUGGUAUAGAGUAGGACUGGAAUUCUCGGGUGCCAA`, “RBNS enrichment (R)” read 0.397.
Under “RBNS enrichment (R)”, `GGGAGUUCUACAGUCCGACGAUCGGGGGUUGGGUAUCACAGUGUAGCUCAUGACUUUGUUCCCUCACCCCACCCCCAAUCCAAAAGGUUCAGAGUCCCCCGAGAUGACACUUCCUCCAGCAUAACCCCAGUUGUGGAAUUCUCGGGUGCCAA` is recorded as 2.4.
`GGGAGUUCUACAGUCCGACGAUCGUUUGUUUUUGAAUGCCCUGUUUUCAUAGAAUCCUAUCCUCUCAGAUGGUGGAAUCUUUGGGGAAACUUUAAAGUAACUAAUUUUUAUUUAAAAAAAAAAUCUCGGCAGAUGGAAUUCUCGGGUGCCAA`: “RBNS enrichment (R)” 1.59.
`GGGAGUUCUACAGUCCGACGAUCAUUUAAAGAAAGGUCUAUGCUGUCAUAUGGGGUUUAUUGGGAACUAUCCUCCUGGCCCCACCCUGCCCCUUCUUUUUGGUUUUGACAUCAUUCAUUUCCACCUGGGAAUUUGGAAUUCUCGGGUGCCAA` — result for “RBNS enrichment (R)”: 0.457.
`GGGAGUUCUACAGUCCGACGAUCGUGGAACUGAAGUUUGAUUUAUUUUUGUACUACACGGCAUGGGUUUGUUGACACUUUAAUUUUGCUAUAAAUGUGUGGAAUCACAAGUUGCUGUGAUACUUCAUUUUUAAUGGAAUUCUCGGGUGCCAA`: “RBNS enrichment (R)” 10.4.
`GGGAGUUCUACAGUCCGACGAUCUAGGCUGUGUUGUUCGCCCAGGUUUCUGCAUCUUGCACUUUGACAUUCCCAAGAGGGAAGGGACUAGUGGGAGAGAGCAAGGGAGGGGAGGGCACAGACAGAGAGGCUACUGGAAUUCUCGGGUGCCAA`: “RBNS enrichment (R)” 0.881.
`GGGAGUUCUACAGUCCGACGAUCAGUUGUGUGGAGGGAUGGAAAGUGGGUCAGUGGAGAAGGGAUUCAGAAAAUGACACAUUCUUCCCCAUUUCUAUAGUGUAUGUGGUUUAUUUUGAGUCAUGUCUCAUCUGUGGAAUUCUCGGGUGCCAA` — result for “RBNS enrichment (R)”: 0.533.
For `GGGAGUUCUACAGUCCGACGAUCGGAUUCCGUCUGCAGAGGAGGACGUAGGGGGCCGUCACACCCACCAGGCCUCCCUGCUGUGCUUUAACACAGGCAGAAGAGGUUCAUGGCAAUAUAAUAGUCAAUGAACUUGGAAUUCUCGGGUGCCAA`, “RBNS enrichment (R)” read 0.221.
Under “RBNS enrichment (R)”, `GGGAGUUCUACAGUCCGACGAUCGACUUCCCUAUGCCAGCACAUGUGCCCCAGGUGGGGCUGAGUACAGGUAACCUUGAGCUCAGCUUGGGCCAGCUUUGAACAGUGCUUCUGAGGUCCCCAGAGACCAAAGCUGGAAUUCUCGGGUGCCAA` is recorded as 0.333.
For `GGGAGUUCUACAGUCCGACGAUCCGUGGCAACAUAUCUCUGUAAAAACAAACACUGUAACUUCUAAAUAAAUGUUUAGUCUUCCCUGUAACCUUCAAACUGAGUCAUGUGUGAGUCAGCAUUUUCUUUACAUGUGGAAUUCUCGGGUGCCAA`, “RBNS enrichment (R)” read 0.323.

Set 2
Target: Sal-like protein 4, full length isoform B (SALL4, Homo sapiens, UniProt Q9UJQ4-2, residues 1-616)
Method: universal PBM
Molecule type: double-stranded DNA, one strand shown
Sample: in vitro
Tested at: not given
Setting: 8-mer, flanks averaged, mean of replicates
Direction: higher = stronger binding
The E-score of `TCCCTTCA` is reported as 0.0057.
`CGAGATGA` has an E-score of -0.102.
`CGCTCACC` has an E-score of -0.319.
With `ATCGCTTC` the E-score was 0.0518.
For `AAATAAAT`, the E-score was 0.399.
The E-score of `CAACTTGA` is reported as 0.12.
For `ATAAAGGG`, the E-score was 0.161.
`CCCAGTTC` gave an E-score of -0.206.
`GCGGTATA` gave an E-score of 0.179.
For `ATTCACGG`, the E-score was 0.076.
The E-score of `CGAGAGAC` is reported as -0.162.
The E-score of `CGCTGTCA` is reported as -0.291.
The E-score of `TGCCCGAA` is reported as -0.0388.
The E-score of `GCCCAAAA` is reported as -0.0107.
`GGGACCTA` gave an E-score of -0.212.
The E-score of `ATTTCCAG` is reported as 0.0586.
`ATTTCAAG` has an E-score of 0.241.
For `CGCCCGGA`, the E-score was -0.268.
`CATAAATC` gave an E-score of 0.346.
The E-score of `AAGTGCGC` is reported as -0.201.
`AGGAACCC` gave an E-score of -0.266.
For `GGTACAGA`, the E-score was 0.0735.
The E-score of `CAAGGGAA` is reported as 0.0741.
For `AGTTGTGA`, the E-score was 0.171.
With `AAGCGCAA` the E-score was 0.031.

Set 3
Target: CCND2, cyclin fold, Cln2 fusion (human)
Method: yeast growth competition, sequencing
Sample: yeast
Setting: weak parent motif
Baseline: not given
Direction: higher = stronger binding
Starting sequence: CUX1 docking peptide (human); SRIRRELFIEEIQ; partner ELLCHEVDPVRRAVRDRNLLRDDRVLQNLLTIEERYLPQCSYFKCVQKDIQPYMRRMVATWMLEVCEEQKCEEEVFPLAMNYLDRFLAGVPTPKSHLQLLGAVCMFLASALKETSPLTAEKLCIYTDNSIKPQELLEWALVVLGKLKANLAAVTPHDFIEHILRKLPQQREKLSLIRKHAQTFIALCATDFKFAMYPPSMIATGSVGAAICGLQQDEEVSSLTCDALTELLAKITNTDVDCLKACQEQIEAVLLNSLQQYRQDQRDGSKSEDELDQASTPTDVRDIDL
For `R5A L7A`, “normalised enrichment score” read -0.106.
`R5K F8L` — result for “normalised enrichment score”: 0.662.
`R5A` — result for “normalised enrichment score”: 0.126.
`R2A`: “normalised enrichment score” 0.00812.
Under “normalised enrichment score”, `I12A` is recorded as -0.329.
`Q13A`: “normalised enrichment score” -0.623.
`E11A` — result for “normalised enrichment score”: 0.489.
For `L7A`, “normalised enrichment score” read 0.0563.
`F8L`: “normalised enrichment score” 0.0157.

Set 4
Target: Transcriptional repressor CTCF (CTCF, Homo sapiens, UniProt P49711, residues 1-727, full length assumed)
Method: protein-binding microarray
Molecule type: double-stranded DNA, one strand shown
Sample: in vitro
Tested at: not given
Setting: k-mer, scored over probes, only values ≥0.25
Direction: higher = stronger binding
Residues (chain): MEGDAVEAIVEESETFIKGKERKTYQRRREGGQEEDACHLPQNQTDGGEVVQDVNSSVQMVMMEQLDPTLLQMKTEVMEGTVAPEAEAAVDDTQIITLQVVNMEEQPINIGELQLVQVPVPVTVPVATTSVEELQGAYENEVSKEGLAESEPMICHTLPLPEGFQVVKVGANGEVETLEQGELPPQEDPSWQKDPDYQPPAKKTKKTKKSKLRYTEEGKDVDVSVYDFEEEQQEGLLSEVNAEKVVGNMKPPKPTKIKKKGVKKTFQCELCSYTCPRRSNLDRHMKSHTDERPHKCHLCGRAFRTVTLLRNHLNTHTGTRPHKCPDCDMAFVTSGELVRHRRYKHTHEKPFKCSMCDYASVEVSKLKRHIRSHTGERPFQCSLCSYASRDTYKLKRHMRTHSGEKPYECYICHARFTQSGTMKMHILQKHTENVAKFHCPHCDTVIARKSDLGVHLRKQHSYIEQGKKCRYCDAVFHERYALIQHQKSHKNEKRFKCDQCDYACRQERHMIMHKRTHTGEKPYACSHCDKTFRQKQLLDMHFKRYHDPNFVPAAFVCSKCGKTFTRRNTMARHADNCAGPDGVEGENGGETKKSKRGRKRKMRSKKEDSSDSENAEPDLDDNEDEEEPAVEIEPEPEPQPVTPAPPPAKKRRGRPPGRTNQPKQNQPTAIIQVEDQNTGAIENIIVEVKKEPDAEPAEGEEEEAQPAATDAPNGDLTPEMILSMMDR
The E-score of `GCAATACA` is reported as 0.304.
The E-score of `AATACTCA` is reported as 0.295.
The E-score of `ATATAGCG` is reported as 0.274.
For `GCATTTTA`, the E-score was 0.357.
`ATTATACA` has an E-score of 0.327.
With `TTAAATAA` the E-score was 0.264.
The E-score of `CACGCGCC` is reported as 0.261.
For `GGGGGCGA`, the E-score was 0.316.
For `TCATTAAA`, the E-score was 0.328.
`ATGTCACA` gave an E-score of 0.258.
With `ATTAAAAC` the E-score was 0.261.
`ATTGCACA` has an E-score of 0.259.

Set 5
Substance: PhoQ, residues 284 288 289 292 302 303 SSLVEF
Method: Sort-seq
Refers to: YFP reporter
Sample: E. coli
Setting: PhoQ-PhoP variant library
Together with: 10 µM Mg2+
Baseline: high Mg2+ state
Direction: higher = stronger signaling
PhoP, residues 12 14 15 18 19 NQCAL (Escherichia coli, UniProt P23836) — fold induction: 3.87.
For PhoP, residues 12 14 15 18 19 TQAML (Escherichia coli, UniProt P23836): fold induction read 13.5.
The fold induction was 12.6 (PhoP, residues 12 14 15 18 19 LHTVL (Escherichia coli, UniProt P23836)).

Set 6
Target: ABI1, truncated, D143A, DHFR fusion (Arabidopsis thaliana)
Method: DHFR PCA, deep sequencing
Sample: yeast
Setting: methotrexate growth selection, single substitutions
Together with: (+)-ABA 1.4 µM
Baseline: wild-type fitted maximum
Direction: higher = stronger binding
Starting sequence: PYL1, truncated, DHFR fusion (Arabidopsis thaliana); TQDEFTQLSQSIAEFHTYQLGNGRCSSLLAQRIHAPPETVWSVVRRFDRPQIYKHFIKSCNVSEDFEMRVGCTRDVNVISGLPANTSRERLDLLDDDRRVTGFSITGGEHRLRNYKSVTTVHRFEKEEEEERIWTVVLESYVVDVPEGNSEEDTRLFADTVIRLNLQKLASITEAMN
Under “relative binding score”, `R45L` is recorded as -4.42%.
Under “relative binding score”, `Q2V` is recorded as 74.5%.
For `V78H`, “relative binding score” read 25.5%.
`E151I`: “relative binding score” 41.3%.
`R113A` — result for “relative binding score”: 47.8%.
Under “relative binding score”, `K168P` is recorded as -3.5%.
Under “relative binding score”, `Q51V` is recorded as -0.553%.
`H55I`: “relative binding score” 73.6%.
For `V161C`, “relative binding score” read 39.1%.
For `L20M`, “relative binding score” read 44.3%.
`Y141G` — result for “relative binding score”: -4.26%.
Under “relative binding score”, `L8M` is recorded as 39.7%.
`I52D`: “relative binding score” 58.5%.
For `S104I`, “relative binding score” read 1.77%.
For `R132E`, “relative binding score” read 90.3%.
For `M68E`, “relative binding score” read -1.48%.
Under “relative binding score”, `R111K` is recorded as 23.1%.
